Measurements gathered from unrelated publications.
Each line is one published result; not all experiments were run side by side. “And” joins repeats or separate records; there may be more than shown.
Cell line: HaCaT

Structure (SMILES) | test | conditions | scale | quantity | value
CC(C)C[C@H](NC(=O)[C@H](CC(N)=O)NC(=O)[C@H](CCCNC(=N)N)NC(=O)[C@@H](CC(C)C)NC(=O)[C@H](Cc1ccc(-c2ccccc2)cc1)NC(=O)[C@H](CC(=O)O)NC(=O)[C@H](CCCCN)NC(=O)[C@@H](CC(C)C)NC(=O)[C@H](CCCNC(=N)N)NC(=O)[C@H](CCC(N)=O)NC(=O)[C@@H](NC(=O)[C@@H](CC(C)C)NC(=O)[C@H](CCCNC(=N)N)NC(=O)[C@H](CCCCN)NC(=O)[C@H](Cc1ccc(-c2ccccc2)cc1)NC(=O)CN)C(C)C)C(=O)N[C@H](C(N)=O)C(C)C | cell viability, MTS | 1 h, 37 °C, 10% FBS | – | LC50 | 40 µM
CC[C@H](C)[C@H](NC(=O)[C@H](CCCNC(=N)N)NC(=O)CNC(=O)[C@H](CCCCN)NC(=O)[C@@H](NC(=O)CNC(=O)[C@H](Cc1c[nH]cn1)NC(=O)[C@@H](NC(=O)[C@H](CC(C)C)NC(=O)[C@H](CO)NC(=O)CNC(=O)[C@H](CC(C)C)NC(=O)CN)C(C)C)C(C)C)C(=O)N[C@@H](Cc1ccccc1)C(=O)N[C@@H](CC(N)=O)C(=O)N[C@@H](Cc1c[nH]cn1)C(=O)N[C@@H](CCCCN)C(=O)N[C@@H](CC(C)C)C(=O)NCC(=O)N[C@@H](CCSC)C(=O)N[C@@H](C)C(=O)N[C@@H](CO)C(=O)N[C@H](C(=O)N[C@H](C(=O)N[C@@H](CCCCN)C(=O)NCC(=O)N[C@H](C(=O)N[C@@H](CC(C)C)C(=O)N[C@@H](CCC(N)=O)C(=O)N[C@@H](CCCCN)C(=O)N[C@@H](CC(C)C)C(=O)N[C@@H](Cc1c[nH]c2ccccc12)C(=O)N[C@@H](CCC(=O)O)C(=O)O)C(C)C)[C@@H](C)CC)C(C)C | cytotoxicity, MTT | 24 h, 37 °C | – | IC50 | 47.2 µM
CC(C)C[C@H](NC(=O)[C@H](CC(C)C)NC(=O)[C@H](CCCCN)NC(=O)CNC(=O)[C@H](CC(C)C)NC(=O)CNC(=O)[C@H](CO)NC(=O)[C@H](CC(C)C)NC(=O)[C@H](CC(C)C)NC(=O)[C@H](CO)NC(=O)[C@H](CCCCN)NC(=O)[C@H](CC(C)C)NC(=O)[C@H](CCCCN)NC(=O)[C@H](CCCCN)NC(=O)[C@H](C)NC(=O)[C@H](C)NC(=O)[C@H](C)NC(=O)CNC(=O)[C@H](CO)NC(=O)[C@H](Cc1c[nH]c2ccccc12)NC(=O)[C@@H](N)CCCCN)C(=O)O | MTS | 24 h | – | TC50 | > 100 µM
CC[C@H](C)[C@H](NC(=O)[C@H](C)NC(=O)[C@H](CCCCN)NC(=O)[C@H](CC(C)C)NC(=O)[C@@H](N)Cc1ccccc1)C(=O)N[C@@H](CCCCN)C(=O)N[C@@H](CCCCN)C(=O)N[C@@H](Cc1ccccc1)C(=O)NCC(=O)N[C@@H](CCCCN)C(=O)N[C@@H](CCC(=O)O)C(=O)N[C@@H](Cc1ccccc1)C(=O)N[C@@H](CCCCN)C(=O)N[C@@H](CCCCN)C(=O)N[C@H](C(=O)NCC(=O)N[C@@H](C)C(=O)N[C@@H](CCCCN)C(=O)N[C@@H](CC(C)C)C(=O)N[C@@H](CCCCN)C(=O)O)[C@@H](C)CC | MTT | 16 mg/L | relative to: untreated | cell growth | 90.1% and 91.5% and 97.5% and 93.8% and 84.5%
COc1cc(/C=C/C(=O)O)ccc1O | MTT | 24 h, 10% FBS DMEM | – | subcytotoxic concentration | 50 µM
Cc1ccc(NS(=O)(=O)c2c(C(=O)N3CCCCCC3)c(C)n(C)c2C)c(Cl)c1 | – | 1.235 µM, 60 h | – | viability | 97.3% and 99.1%
COc1cc(/C=C/C(=O)Oc2cc(C(F)(F)F)ccc2C(F)(F)F)ccc1OC(C)=O | MTT | 24 h, 10% FBS | – | subcytotoxic concentration | 25 µM
CC[C@H](C)[C@H](NC(=O)[C@H](CCC(=O)O)NC(=O)[C@H](CCCNC(=N)N)NC(=O)[C@H](CC(C)C)NC(=O)[C@H](CCCCN)NC(=O)CNC(=O)[C@H](CC(C)C)NC(=O)[C@H](Cc1ccccc1)NC(=O)[C@H](CC(N)=O)NC(=O)[C@H](CCCCN)NC(=O)[C@H](C)NC(=O)[C@H](CC(C)C)NC(=O)CNC(=O)[C@H](CO)NC(=O)[C@@H](NC(=O)[C@@H](NC(=O)[C@H](CO)NC(=O)[C@H](CCCNC(=N)N)NC(=O)[C@H](Cc1c[nH]c2ccccc12)NC(=O)[C@H](Cc1ccccc1)NC(=O)[C@H](CCCNC(=N)N)NC(=O)CNC(=O)[C@H](Cc1ccccc1)NC(=O)CN)C(C)C)[C@@H](C)CC)C(=O)N[C@@H](CO)C(=O)N[C@@H](CCC(N)=O)C(=O)N[C@@H](CC(C)C)C(=O)N[C@@H](Cc1ccc(O)cc1)C(=O)O | cytotoxicity, MTT | 24 h, 37 °C | – | IC50 | 7.09 µM
CC(=O)Oc1ccc(/C=C/C(=O)Oc2cc(C(F)(F)F)ccc2C(F)(F)F)cc1OC(C)=O | MTT | 24 h, 10% FBS | – | subcytotoxic concentration | 50 µM
CC[C@H](C)[C@H](NC(=O)[C@H](C)NC(=O)[C@H](CCCCN)NC(=O)[C@H](CCCCN)NC(=O)[C@@H](N)CCCNC(=N)N)C(=O)N[C@@H](CCCCN)C(=O)N[C@@H](CC(C)C)C(=O)N[C@H](C(=O)N[C@@H](CCCCN)C(=O)N[C@@H](CCCCN)C(=O)N[C@@H](CC(C)C)C(=O)N[C@H](C(=O)N[C@@H](CCCCN)C(=O)N[C@@H](CCCCN)C(=O)N[C@@H](CC(C)C)C(=O)N[C@@H](CCCCN)C(=O)N[C@@H](CCCCN)C(=O)N[C@@H](C)C(=O)N[C@@H](CC(C)C)C(=O)N[C@@H](CCCCN)C(=O)O)C(C)C)C(C)C | MTT | 64 mg/L | relative to: untreated | cell growth | 86.4% and 96.4% and 82.1% and 85.9% and 79.3%

Repeated from above:
Structure (SMILES) | test | conditions | scale | quantity | value
Cc1ccc(NS(=O)(=O)c2c(C(=O)N3CCCCCC3)c(C)n(C)c2C)c(Cl)c1 | – | 1.235 µM, 60 h | – | viability | 97.3% and 99.1%
